Measured values gathered from unrelated publications.
Parts stem from different laboratories: compare values within a part only.

Study 1
Target: Histone acetyltransferase KAT6A, winged helix 2, GST fusion (KAT6A, Homo sapiens, UniProt Q92794, residues 85-181)
Technique: protein binding microarray
Form: double-stranded DNA, one strand shown
Matrix: in vitro
Concentration: not given
Setting: 8-mer, flanks averaged, mean of 2 arrays, mostly near background
Reference: not given
Direction: higher = stronger binding
Construct (chain): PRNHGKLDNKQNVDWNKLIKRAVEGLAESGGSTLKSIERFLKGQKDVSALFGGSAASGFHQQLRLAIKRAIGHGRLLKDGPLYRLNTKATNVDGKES
For `TGAGCCAA`, the E-score was -0.144.
`GGGGTACC` gave an E-score of 0.0164.
`TCGACACA` has an E-score of 0.0138.
For `CGTGTTGC`, the E-score was 0.135.

Study 2
Target: Prothrombin, mature alpha-thrombin (F2, Homo sapiens, UniProt P00734)
Technique: aptamer microarray, sandwich
Form: DNA with 2'F-ANA
Matrix: in vitro
Concentration: 200 nM
Setting: whole 15-mer aptamer, many near background
Added: Cy3 exosite-II aptamer, 400 nM
Direction: higher = stronger binding
Strand: GGTTGGTGTGGTTGG
Under “mean fluorescence intensity”, `2'F-ANA at 1 2 3 7 8 9 10 11` is recorded as 77.7 a.u.
Under “mean fluorescence intensity”, `2'F-ANA at 1 2 4 5 6 7 10 11 12 14 15` is recorded as 49.5 a.u.
`2'F-ANA at 3 4 8 9 10 14 15` — result for “mean fluorescence intensity”: 176 a.u.
`2'F-ANA at 1 2 3 4 9 10 11 13` — result for “mean fluorescence intensity”: 53.4 a.u.
Under “mean fluorescence intensity”, `2'F-ANA at 1 2 6 8 9 10 11 12 15` is recorded as 61.5 a.u.
`2'F-ANA at 1 3 6 13 15`: “mean fluorescence intensity” 208 a.u.

Study 3
Target: Interferon regulatory factor 3, full length, phosphomimetic (IRF3, Homo sapiens, UniProt Q14653, residues 1-427, S386D/S396D/S398D/S402D/T404D/S405D)
Technique: protein-binding microarray
Form: double-stranded DNA, one strand shown
Matrix: in vitro
Concentration: 2540 nM top
Setting: 60-bp whole probe
Added: salmon DNA 0.4 mg/ml
Reference: random background probes
Direction: higher = stronger binding
Constant ends, left off below: GCCTAGCAC … GTGCTAGGTCTTGATTCGCTTGACGCTGCTG
Target sequence (chain): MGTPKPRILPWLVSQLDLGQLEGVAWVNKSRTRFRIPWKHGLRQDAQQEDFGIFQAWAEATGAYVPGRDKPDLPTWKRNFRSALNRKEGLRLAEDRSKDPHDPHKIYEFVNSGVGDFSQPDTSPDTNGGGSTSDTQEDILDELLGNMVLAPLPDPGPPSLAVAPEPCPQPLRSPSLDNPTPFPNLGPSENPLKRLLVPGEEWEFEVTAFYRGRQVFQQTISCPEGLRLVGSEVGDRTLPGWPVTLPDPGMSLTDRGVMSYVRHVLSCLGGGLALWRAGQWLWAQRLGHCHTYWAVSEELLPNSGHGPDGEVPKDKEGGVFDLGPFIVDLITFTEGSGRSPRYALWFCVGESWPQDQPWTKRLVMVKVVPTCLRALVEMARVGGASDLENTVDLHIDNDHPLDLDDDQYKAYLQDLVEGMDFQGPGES
Under “fitted relative affinity”, `TCACTTTGCCTTTTGCTACT` is recorded as 1.81 z-score.
Under “fitted relative affinity”, `TTAGATTTCAGTCTCGTTTA` is recorded as 2.65 z-score.
`TTCTCTTTCACTGCTGCCCT`: “fitted relative affinity” 2.27 z-score.
For `GAGGATCTCAGTCTCGAGAC`, “fitted relative affinity” read 0.0416 z-score.
`TTAGATCTCAGTTTCGATAA` — result for “fitted relative affinity”: 3.15 z-score.
Under “fitted relative affinity”, `AACGAACTGAGTCTCGAGAC` is recorded as -0.217 z-score.

Single results of other studies
`PhoQ, residues 284 288 289 292 302 303 SMMNNA` has a fold induction of 4.68 (PhoP, residues 12 14 15 18 19 AGCRL (Escherichia coli, UniProt P23836); Sort-seq, item: YFP reporter; E. coli; PhoQ-PhoP variant library, added: 10 µM Mg2+; reference: high Mg2+ state, higher = stronger signaling).

Repeated from above (study 3):
For `GAGGATCTCAGTCTCGAGAC`, “fitted relative affinity” read 0.0416 z-score.
